Measured values collected from several papers.
A part holds a random share of what one study measured. Substitutions count along the parent as printed.

Sample 1
Target: Histone acetyltransferase KAT6A, winged helix 2, GST fusion (KAT6A, Homo sapiens, UniProt Q92794, residues 85-181)
Technique: protein binding microarray
Molecule type: double-stranded DNA, one strand shown
Medium: in vitro
Concentration: not given
Notes: 8-mer, flanks averaged, mean of 2 arrays, mostly near background
Reference: not given
Direction: higher = stronger binding
Measurement: E-score
Construct (chain): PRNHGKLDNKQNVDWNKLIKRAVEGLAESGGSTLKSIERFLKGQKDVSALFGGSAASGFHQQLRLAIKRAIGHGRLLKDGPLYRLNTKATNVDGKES
ATGTCCTA: -0.0466
AGTAGGAT: -0.107
ACTCGTAA: -0.069
CCCGTAGG: 0.0873
CAGGGGCA: 0.068
AGGCTACT: -0.0276

Sample 2
Target: CRIPT, C-terminal peptide
Technique: DHFR complementation, deep sequencing
Medium: yeast
Notes: single substitutions, model-inferred values
Reference: wild type
Direction: higher = weaker binding
Measurement: binding free energy change
Starting sequence: ERBIN, PDZ domain 1 (human); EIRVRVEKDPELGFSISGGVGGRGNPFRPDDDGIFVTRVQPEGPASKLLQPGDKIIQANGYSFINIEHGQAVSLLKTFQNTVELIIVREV; partner TKNYKQTSV
F63C: 0.156 kcal/mol
Q57M: 0.0109 kcal/mol
V4G: 0.921 kcal/mol
G21C: 0.355 kcal/mol
E42V: 0.219 kcal/mol

Sample 3
Target: Sal-like protein 4, full length isoform B (SALL4, Homo sapiens, UniProt Q9UJQ4-2, residues 1-616)
Technique: universal PBM
Molecule type: double-stranded DNA, one strand shown
Medium: in vitro
Concentration: not given
Notes: 8-mer, flanks averaged, mean of replicates
Direction: higher = stronger binding
Measurement: E-score
CCGGACCA: -0.319
ATGCTGAA: 0.0782
ATCCGCGA: -0.114
GGCTGTCA: -0.182
GCTTCTCC: -0.159
CGCTTCTA: -0.00696
ACTTAGAG: 0.0314
CAGAATGC: -0.0858
ACTATGAA: 0.335
GGCCACTA: -0.163

Mixed results
PhoQ, residues 284 288 289 292 302 303 QWGLFV — fold induction (PhoP, residues 12 14 15 18 19 NHFIF (Escherichia coli, UniProt P23836); Sort-seq, item: YFP reporter; E. coli; PhoQ-PhoP variant library, together with: 10 µM Mg2+; reference: high Mg2+ state, higher = stronger signaling): 8.81
